Published values from different studies.
Compare with care: the assays were run in different laboratories.
Target: Sodium-dependent serotonin transporter (SLC6A4, Homo sapiens, UniProt P31645)
Sequence of UniProt P31645 (whole entry, looked up): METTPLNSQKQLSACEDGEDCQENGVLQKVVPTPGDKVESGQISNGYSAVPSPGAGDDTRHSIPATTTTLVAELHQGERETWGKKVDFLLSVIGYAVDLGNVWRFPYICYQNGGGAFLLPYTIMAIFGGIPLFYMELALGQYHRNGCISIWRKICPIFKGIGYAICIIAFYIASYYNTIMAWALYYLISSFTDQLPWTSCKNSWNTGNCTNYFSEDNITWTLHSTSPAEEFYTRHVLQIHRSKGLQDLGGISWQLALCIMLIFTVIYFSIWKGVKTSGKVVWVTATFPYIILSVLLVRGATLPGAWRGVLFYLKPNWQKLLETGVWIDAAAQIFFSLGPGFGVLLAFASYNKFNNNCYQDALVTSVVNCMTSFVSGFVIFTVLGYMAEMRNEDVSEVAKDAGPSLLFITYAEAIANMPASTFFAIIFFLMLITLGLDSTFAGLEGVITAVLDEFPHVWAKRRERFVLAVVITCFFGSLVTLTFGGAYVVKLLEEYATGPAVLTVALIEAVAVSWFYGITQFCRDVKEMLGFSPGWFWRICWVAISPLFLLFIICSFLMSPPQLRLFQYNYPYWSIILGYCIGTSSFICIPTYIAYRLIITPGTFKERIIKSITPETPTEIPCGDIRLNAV

| SMILES | assay | system | conditions | how to read | inhibition |
| --- | --- | --- | --- | --- | --- |
| C[Si](C)(C)C[C@@H](CN)CC(=O)O | ligand displacement, radioligand |  | 75 µM |  | 3% |
| Cc1cccc(O[C@H]2CCC[C@@H](C(C)CNCc3ccncc3)C2)c1 (relative stereo) | cell-free assay |  | 10 µM |  | 87% |
| CNC(=O)C12CC1C(n1cnc3c(NC)nc(C#Cc4ccccc4Cl)nc31)C(O)C2O (centres unmarked) | radioligand binding | HEK293 | 10 µM, added: [3H]citalopram | negative = enhanced binding | -34% |
| COCC(=O)N1CCc2cc(-c3csc(NC(=O)c4cc(OC)cc(OC)c4)n3)ccc21 |  |  | 10 µM |  | 9% |
| Cc1[nH]nc2c1N=C(c1ccccc1Cl)c1cnc(N3CCOCC3)cc1N2 | cell-free assay |  | 10 µM |  | -4% |
| CCC(=O)N(C)c1ccc(Cl)c(Cl)c1 | binding, radioligand binding |  | 10 µM |  | < 10% |
| COc1ccc(C(=O)Nc2c(-c3cccs3)nc3ccccn23)cc1 | ligand displacement, radioligand |  | 10 µM |  | < 50% |
| Brc1ccccc1-c1nnc(CSc2nnnn2-c2ccccc2)o1 | ligand displacement, radioligand |  | 10 µM |  | -14% |
| COc1ccc(S(=O)(=O)N2CCc3ccccc3C2)cc1N1CCN(C(=O)c2ccc(F)cc2C(F)(F)F)CC1 | ligand displacement, radioligand |  | 1 µM |  | -5.3% |
| O=C1c2sc(-c3ccc(N4CCC(F)C4)nc3F)nc2CCN1c1cccnc1 (centres unmarked) | ligand displacement, radioligand |  | 1 µM |  | 1% |
| Cn1ccc2cc(-n3c(=O)[nH]c4sc5c(c4c3=O)CCCC5)ccc21 | transporter uptake, inhibitor |  | 10 µM |  | 4% |
| CC(=O)c1cnc(N)nc1N1CC[C@H]1c1nn2ccc(Cl)c2c(=O)n1-c1ccccc1 | ligand displacement, radioligand |  | 10 µM |  | 17% |
| CCOC(=O)C12CC1C(n1cnc3c(NC)nc(C#Cc4ccc(F)s4)nc31)C(O)C2O (centres unmarked) | ligand displacement, radioligand |  | 10 µM |  | 6% |
| CO[C@@H](C)c1c(NC(=O)Nc2cnc(-n3nccn3)c(C(F)(F)F)c2)cnc2sc(C)nc12 | ligand displacement, radioligand |  | 10 µM |  | -3.5% |

A few entries again:
| SMILES | assay | system | conditions | how to read | inhibition |
| --- | --- | --- | --- | --- | --- |
| CNC(=O)C12CC1C(n1cnc3c(NC)nc(C#Cc4ccccc4Cl)nc31)C(O)C2O (centres unmarked) | radioligand binding | HEK293 | 10 µM, added: [3H]citalopram | negative = enhanced binding | -34% |
| Cc1[nH]nc2c1N=C(c1ccccc1Cl)c1cnc(N3CCOCC3)cc1N2 | cell-free assay |  | 10 µM |  | -4% |
